Measurements from different studies.
Compare with care: the assays were run in different laboratories. ± marks the error that the study gave.
Target: Cytochrome P450 2C19 (CYP2C19, Homo sapiens, UniProt P33261)
Sequence of UniProt P33261 (whole entry, looked up): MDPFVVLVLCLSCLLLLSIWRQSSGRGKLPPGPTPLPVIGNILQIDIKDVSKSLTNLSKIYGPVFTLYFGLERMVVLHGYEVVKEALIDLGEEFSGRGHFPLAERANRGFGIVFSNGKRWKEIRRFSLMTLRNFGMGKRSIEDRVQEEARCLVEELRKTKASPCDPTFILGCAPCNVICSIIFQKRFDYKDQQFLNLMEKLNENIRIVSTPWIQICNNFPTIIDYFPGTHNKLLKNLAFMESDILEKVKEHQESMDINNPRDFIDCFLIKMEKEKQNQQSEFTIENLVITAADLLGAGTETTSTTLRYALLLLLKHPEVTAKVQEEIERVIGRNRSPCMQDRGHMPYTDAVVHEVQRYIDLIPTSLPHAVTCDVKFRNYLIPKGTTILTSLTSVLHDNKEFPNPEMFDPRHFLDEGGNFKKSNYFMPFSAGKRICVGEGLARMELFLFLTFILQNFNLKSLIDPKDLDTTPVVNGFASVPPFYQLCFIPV

The CLint of CC(C)=CCc1cc2c(cc1O)O[C@H](c1ccc(O)cc1)CC2=O is reported as 22.6 µL/min/mg (phase I metabolism, substrate; recombinant enzyme; pH 7.4).
The remaining compound of C[C@H]1CN(C2COC2)CCN1c1ccc(Nc2cc(-c3ccnc(N4CCn5c(cc6c5CC(C)(C)C6)C4=O)c3CO)cn(C)c2=O)nc1 is reported as 94.8 ± 8.4% (substrate; recombinant enzyme; 1 µM, 60 min).
C=CC(=O)Nc1cc(Nc2nccc(-c3cn(C)c4ccccc34)n2)c(OCC(F)(F)F)nc1N(C)CCN(C)C gave an intrinsic clearance of 0.3 µL/min/pmol (substrate depletion; recombinant human CYP; 1 µM).
COc1ccc2nc([S+]([O-])Cc3ncc(CO)c(OC)c3C)[nH]c2c1 (stereo not drawn) gave an AUC(0-t) of 195 ng·h/mL (substrate; human, plasma; oral, 20 mg, day 14, cocktail with binimetinib and encorafenib).
For N#C[C@H](C[C@@H]1CCCNC1=O)NC(=O)[C@H](CC1CC1)NC(=O)c1cc2cccc(Cl)c2[nH]1, the fraction metabolised was less than 1% (ISEF abundance scaling; 2 µM, pH 7.4).
C=CC(=O)N(C)CCOc1c(N)ncnc1-c1cc(F)cc(NC(=O)c2ccc(C3CC3)cc2F)c1C: “relative unbound intrinsic clearance” 4.8 µL/min/mg (recombinant human CYP; pH 7.4, scaled to liver microsomes).
The CLint of Cc1cc(C)c(CNC(=O)c2cc(Cl)c3c(c2C)O[C@@](C)([C@H]2CC[C@H](N(C)C)CC2)O3)c(=O)[nH]1 is reported as 0.00136 µL/min/pmol (recombinant human CYP2C19; 0 and 30 min).
With COc1cc(O)c(CC=C(C)C)c2c1C(=O)CC(c1ccc(O)cc1)O2 (stereo not drawn) the inhibition was 96.3 ± 1.5% (inhibitor; human liver microsomes; 10 µM, pH 7.4, added: (S)-mephenytoin).
COc1ccc2[nH]c([S+]([O-])Cc3ncc(C)c(OC)c3C)nc2c1 (stereo not drawn) — result for “geometric LS mean ratio of Cmax”: 1.01 (human, plasma; oral, 20 mg, Day 14, added: encorafenib at steady state; reference: Day -7).
Cc1cccc(F)c1N1CCC(N2Cc3cn(CC(C)(F)F)nc3N(Cc3ccccc3C(F)(F)F)C2=O)CC1 gave a Ki of 4.3 µM (enzyme activity, inhibitor; added: (S)-mephenytoin 4'-hydroxylation).
The inhibition of COc1cc(O)c(CC=C(C)C)c(O)c1C(=O)/C=C/c1ccc(O)cc1 is reported as 15 ± 1.9% (enzyme activity, inhibitor; human liver microsomes; 10 µM, pH 7.4, added: (S)-mephenytoin).
COc1ccc2[nH]c([S+]([O-])Cc3ncc(C)c(OC)c3C)nc2c1 (stereo not drawn) has a half-life of 0.9 h (item: 5-hydroxyomeprazole; human healthy subjects, plasma; oral, alone, geometric mean, added: midazolam).
With CC(C)=CCc1c(O)cc2c(c1O)C(=O)C[C@@H](c1ccc(O)cc1)O2 the inhibition was less than 10% (1 µM, pH 7.4).
COc1ccc2nc([S+]([O-])Cc3ncc(CO)c(OC)c3C)[nH]c2c1 (stereo not drawn) has a Tmax of 4 h (CYP2C19 inhibitor, item: omeprazole; human, plasma; median, added: omeprazole).
The inhibition of CC(C)=CCc1c(O)cc(O)c2c1O[C@H](c1ccc(O)cc1)CC2=O is reported as greater than 90% (10 µM, pH 7.4).

Some of these lines once more:
With COc1cc(O)c(CC=C(C)C)c2c1C(=O)CC(c1ccc(O)cc1)O2 (stereo not drawn) the inhibition was 96.3 ± 1.5% (inhibitor; human liver microsomes; 10 µM, pH 7.4, added: (S)-mephenytoin).
The inhibition of COc1cc(O)c(CC=C(C)C)c(O)c1C(=O)/C=C/c1ccc(O)cc1 is reported as 15 ± 1.9% (enzyme activity, inhibitor; human liver microsomes; 10 µM, pH 7.4, added: (S)-mephenytoin).
